Assay results pooled from the literature.
Parts stem from different laboratories: compare values within a part only.
Chain of UniProt P61088 (whole entry, looked up): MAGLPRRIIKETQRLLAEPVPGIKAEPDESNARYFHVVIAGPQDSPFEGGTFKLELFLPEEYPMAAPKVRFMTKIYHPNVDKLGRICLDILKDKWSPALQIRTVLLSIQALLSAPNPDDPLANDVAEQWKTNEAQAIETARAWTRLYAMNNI
Chain of UniProt P51965 (whole entry, looked up): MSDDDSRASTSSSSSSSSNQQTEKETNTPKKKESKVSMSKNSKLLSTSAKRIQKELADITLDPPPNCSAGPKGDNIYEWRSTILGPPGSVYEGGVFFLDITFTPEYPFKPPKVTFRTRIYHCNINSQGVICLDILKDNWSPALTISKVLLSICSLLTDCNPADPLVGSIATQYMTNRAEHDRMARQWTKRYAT
Chain of UniProt Q9BX84 (whole entry, looked up): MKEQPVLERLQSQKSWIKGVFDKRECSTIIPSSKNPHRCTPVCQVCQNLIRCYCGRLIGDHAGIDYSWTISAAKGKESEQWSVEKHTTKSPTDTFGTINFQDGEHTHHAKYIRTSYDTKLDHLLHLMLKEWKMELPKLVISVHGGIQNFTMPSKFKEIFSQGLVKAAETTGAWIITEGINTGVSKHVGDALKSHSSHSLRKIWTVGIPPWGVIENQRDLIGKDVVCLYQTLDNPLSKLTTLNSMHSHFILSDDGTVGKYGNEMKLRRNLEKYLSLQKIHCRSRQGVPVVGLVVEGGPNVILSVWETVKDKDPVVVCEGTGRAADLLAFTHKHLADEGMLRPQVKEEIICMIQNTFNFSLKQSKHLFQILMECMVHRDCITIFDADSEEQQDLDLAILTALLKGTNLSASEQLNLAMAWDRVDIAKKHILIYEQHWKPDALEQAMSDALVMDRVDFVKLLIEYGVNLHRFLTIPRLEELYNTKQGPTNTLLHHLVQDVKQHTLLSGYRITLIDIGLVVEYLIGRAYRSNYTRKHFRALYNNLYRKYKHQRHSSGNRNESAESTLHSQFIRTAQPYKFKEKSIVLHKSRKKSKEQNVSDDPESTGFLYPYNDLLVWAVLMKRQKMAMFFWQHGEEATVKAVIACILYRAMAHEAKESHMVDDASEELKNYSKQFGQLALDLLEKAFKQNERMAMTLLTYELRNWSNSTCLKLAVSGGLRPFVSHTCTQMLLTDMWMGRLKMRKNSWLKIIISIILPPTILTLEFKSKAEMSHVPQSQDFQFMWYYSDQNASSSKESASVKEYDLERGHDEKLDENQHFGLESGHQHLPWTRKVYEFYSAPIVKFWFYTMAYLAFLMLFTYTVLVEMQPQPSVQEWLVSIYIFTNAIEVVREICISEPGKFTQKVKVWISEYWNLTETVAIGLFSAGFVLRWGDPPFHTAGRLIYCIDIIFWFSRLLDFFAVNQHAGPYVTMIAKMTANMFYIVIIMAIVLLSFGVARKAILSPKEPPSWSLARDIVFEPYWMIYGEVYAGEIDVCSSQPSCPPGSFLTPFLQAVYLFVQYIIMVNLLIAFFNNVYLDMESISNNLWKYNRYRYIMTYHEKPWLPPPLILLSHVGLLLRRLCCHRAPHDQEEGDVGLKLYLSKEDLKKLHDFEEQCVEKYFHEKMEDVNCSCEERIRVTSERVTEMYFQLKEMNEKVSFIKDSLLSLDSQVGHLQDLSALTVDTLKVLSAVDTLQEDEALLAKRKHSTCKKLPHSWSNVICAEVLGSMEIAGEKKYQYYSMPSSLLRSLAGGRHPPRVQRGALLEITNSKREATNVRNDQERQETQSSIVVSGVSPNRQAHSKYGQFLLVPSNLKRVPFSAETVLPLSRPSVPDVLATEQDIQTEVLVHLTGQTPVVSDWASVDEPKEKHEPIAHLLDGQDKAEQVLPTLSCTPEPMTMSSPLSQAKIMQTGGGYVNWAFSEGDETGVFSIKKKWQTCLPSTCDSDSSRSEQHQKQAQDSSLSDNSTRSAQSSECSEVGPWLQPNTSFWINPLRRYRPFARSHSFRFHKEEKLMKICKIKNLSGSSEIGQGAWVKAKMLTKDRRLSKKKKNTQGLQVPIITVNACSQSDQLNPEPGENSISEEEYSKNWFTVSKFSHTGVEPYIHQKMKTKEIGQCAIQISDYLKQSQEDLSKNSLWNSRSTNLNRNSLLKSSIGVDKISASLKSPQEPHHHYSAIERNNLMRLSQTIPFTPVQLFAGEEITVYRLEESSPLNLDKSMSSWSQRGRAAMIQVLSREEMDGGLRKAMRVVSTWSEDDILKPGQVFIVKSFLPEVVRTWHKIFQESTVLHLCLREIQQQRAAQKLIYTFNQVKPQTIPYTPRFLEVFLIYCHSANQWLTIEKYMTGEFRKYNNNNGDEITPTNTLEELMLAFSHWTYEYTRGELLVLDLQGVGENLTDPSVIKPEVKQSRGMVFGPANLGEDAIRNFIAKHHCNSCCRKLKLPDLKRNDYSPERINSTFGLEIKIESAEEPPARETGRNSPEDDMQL
Chain of UniProt P43403 (whole entry, looked up): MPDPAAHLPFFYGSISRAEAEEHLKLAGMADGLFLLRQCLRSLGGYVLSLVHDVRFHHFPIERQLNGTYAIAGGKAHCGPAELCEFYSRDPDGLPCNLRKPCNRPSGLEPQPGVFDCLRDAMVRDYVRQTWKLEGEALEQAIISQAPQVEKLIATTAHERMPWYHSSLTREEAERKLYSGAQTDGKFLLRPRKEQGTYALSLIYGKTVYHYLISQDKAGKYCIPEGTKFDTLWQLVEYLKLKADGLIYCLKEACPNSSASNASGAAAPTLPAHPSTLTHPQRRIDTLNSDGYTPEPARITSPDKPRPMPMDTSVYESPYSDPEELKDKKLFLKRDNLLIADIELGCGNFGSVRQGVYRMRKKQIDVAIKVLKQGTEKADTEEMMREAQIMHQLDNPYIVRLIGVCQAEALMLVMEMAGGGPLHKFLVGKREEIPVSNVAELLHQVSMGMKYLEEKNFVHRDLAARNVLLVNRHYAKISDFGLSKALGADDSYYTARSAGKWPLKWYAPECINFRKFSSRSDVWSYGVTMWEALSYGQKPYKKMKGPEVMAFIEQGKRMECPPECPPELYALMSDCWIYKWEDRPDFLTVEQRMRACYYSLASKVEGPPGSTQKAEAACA
Chain of UniProt O60331 (whole entry, looked up): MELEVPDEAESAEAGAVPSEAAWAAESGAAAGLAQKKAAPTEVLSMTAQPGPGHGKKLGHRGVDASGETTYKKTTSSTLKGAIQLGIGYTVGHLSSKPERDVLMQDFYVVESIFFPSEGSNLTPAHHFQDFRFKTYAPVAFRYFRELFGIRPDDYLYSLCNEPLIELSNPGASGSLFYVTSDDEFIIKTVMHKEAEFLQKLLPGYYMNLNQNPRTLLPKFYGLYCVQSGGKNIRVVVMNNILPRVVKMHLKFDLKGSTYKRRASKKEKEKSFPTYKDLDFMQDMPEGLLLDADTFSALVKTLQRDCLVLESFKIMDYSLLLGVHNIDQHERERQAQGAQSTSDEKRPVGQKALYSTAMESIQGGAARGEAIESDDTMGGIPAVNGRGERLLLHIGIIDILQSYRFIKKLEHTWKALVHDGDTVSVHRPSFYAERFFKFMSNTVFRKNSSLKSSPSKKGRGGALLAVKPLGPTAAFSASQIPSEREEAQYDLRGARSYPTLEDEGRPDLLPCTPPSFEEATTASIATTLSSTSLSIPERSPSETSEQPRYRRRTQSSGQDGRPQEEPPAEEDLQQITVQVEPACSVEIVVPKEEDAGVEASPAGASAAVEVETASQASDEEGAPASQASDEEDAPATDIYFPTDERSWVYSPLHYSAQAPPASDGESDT
Chain of UniProt Q13131 (whole entry, looked up): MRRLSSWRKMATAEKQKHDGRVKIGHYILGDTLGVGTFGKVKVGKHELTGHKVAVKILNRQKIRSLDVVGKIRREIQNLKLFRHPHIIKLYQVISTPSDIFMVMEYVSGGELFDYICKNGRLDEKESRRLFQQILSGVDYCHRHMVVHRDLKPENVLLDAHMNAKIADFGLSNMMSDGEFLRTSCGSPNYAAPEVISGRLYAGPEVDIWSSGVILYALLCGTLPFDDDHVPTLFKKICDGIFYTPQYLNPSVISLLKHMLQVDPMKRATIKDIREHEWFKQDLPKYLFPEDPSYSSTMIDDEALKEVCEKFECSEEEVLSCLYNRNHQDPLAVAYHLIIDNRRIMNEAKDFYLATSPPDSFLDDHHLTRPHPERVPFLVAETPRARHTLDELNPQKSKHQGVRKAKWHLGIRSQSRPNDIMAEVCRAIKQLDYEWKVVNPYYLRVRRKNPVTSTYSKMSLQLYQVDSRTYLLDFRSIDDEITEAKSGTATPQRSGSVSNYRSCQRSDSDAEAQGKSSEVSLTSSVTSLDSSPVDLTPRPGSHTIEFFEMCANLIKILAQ
Chain of UniProt P60604 (whole entry, looked up): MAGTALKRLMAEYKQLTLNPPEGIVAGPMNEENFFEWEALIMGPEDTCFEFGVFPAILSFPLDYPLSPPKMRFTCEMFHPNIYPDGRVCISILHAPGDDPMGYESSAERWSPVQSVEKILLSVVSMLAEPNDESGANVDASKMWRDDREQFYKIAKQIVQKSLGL
Chain of UniProt O14933 (whole entry, looked up): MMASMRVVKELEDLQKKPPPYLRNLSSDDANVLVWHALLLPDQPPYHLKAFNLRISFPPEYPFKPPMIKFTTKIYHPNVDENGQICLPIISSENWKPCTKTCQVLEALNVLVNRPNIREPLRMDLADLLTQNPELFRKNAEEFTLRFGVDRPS

Series 1
SMILES: Cn1nc(C(F)(F)F)cc1-c1cnc(N2CCc3cc(S(=O)(=O)Nc4c(F)cc(Cl)cc4F)cc(N4CCCC4=O)c32)nc1
Method: competition with immobilised ligand
Tested at: 1 µM
target | observed | remaining binding
Tyrosine-protein kinase Fgr (FGR, Homo sapiens, UniProt P09769) | cell-free assay | 90%
5'-AMP-activated protein kinase catalytic subunit alpha-1 (PRKAA1, Homo sapiens, UniProt Q13131) | cell-free assay | 98%
Tyrosine-protein kinase ZAP-70 (ZAP70, Homo sapiens, UniProt P43403) | cell-free assay | 93%
Inhibitor of nuclear factor kappa-B kinase subunit beta (IKBKB, Homo sapiens, UniProt O14920) | cell-free assay | 81%
Serine/threonine-protein kinase 32B (STK32B, Homo sapiens, UniProt Q9NY57) | cell-free assay | 95%
Leucine-rich repeat serine/threonine-protein kinase 2 (LRRK2, Homo sapiens, UniProt Q5S007) | cell-free assay | 79%
Transient receptor potential cation channel subfamily M member 6 (TRPM6, Homo sapiens, UniProt Q9BX84) | cell-free assay | 79%
Tyrosine-protein kinase ABL1, non-phosphorylated (ABL1, Homo sapiens, UniProt P00519, F317I) | binding | 71%
TGF-beta receptor type-1 (TGFBR1, Homo sapiens, UniProt P36897) | cell-free assay | 100%
Mitogen-activated protein kinase kinase kinase 20 (MAP3K20, Homo sapiens, UniProt Q9NYL2) | cell-free assay | 98%
Phosphatidylinositol 4-phosphate 5-kinase type-1 gamma (PIP5K1C, Homo sapiens, UniProt O60331) | cell-free assay | 93%
Phosphatidylinositol 4,5-bisphosphate 3-kinase catalytic subunit alpha isoform (PIK3CA, Homo sapiens, UniProt P42336, I800L) | cell-free assay | 77%

Series 2
Sequence: B1 (RNF31 RING domain)
Method: yeast two-hybrid
Matrix: yeast
Setting: mostly zero background
Baseline: not given
Direction: higher = stronger interaction
B1: RNF31 RING domain (UniProt Q96EP0); chain AFLRRLLAQECAVCGWALPHNRMQALTSCECTICPDCFRQHFTIALKEKHITDMVCPACGRPDLTDDTQLL
target | lacZ reporter activity
UBE2Q2 UBC core domain (UniProt Q8WVN8) | 0
CDC34 UBC core domain (UniProt P49427) | 0
UBE2L6 UBC core domain (UniProt O14933) | 0
UBE2E1 UBC core domain (UniProt P51965) | 0
UBE2N UBC core domain (UniProt P61088) | 0
UBE2G2 UBC core domain (UniProt P60604) | 0

Series 3
Target: Ras GTPase-activating protein-binding protein 1, full length (G3BP1, Homo sapiens, UniProt Q13283)
Chain of UniProt Q13283 (whole entry, looked up): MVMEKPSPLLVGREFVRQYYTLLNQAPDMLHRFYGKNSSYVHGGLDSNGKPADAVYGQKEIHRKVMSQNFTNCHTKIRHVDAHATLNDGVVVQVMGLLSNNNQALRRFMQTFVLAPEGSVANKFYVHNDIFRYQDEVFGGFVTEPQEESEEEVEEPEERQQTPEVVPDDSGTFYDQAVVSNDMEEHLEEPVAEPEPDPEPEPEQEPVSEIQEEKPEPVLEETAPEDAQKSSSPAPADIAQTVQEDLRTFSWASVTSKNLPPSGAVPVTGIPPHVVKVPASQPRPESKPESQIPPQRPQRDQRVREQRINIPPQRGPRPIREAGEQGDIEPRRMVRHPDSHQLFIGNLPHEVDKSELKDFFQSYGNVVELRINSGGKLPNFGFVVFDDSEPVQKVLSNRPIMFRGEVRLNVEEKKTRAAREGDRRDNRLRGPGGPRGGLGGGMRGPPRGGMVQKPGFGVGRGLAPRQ
Method: RNA Bind-n-Seq
Molecule type: RNA
Matrix: in vitro
Tested at: 200 nM
Setting: whole 134-nt RNA, ends assumed
With: 150 mM KCl
Baseline: input library
Direction: higher = stronger binding
Strand | log2 enrichment
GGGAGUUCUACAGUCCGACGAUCCCUGUGCUACACAUCGUAUGUACCGAAUCGGCCCCCCCGGGGCCCCCCCGGCCCCCCCGGAAAGUAUUAUGUUACGCCGUUCGGAUCUGCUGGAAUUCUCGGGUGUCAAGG | -0.203
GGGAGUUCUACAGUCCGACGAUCGUCCUGUGCUACACAUCGUAUGUACCGAAUCAAAUUUAAACCCCCCCAAACCCCCAAAAAAGUAUUAUGUUACGCCGUUCGGAUCUGCACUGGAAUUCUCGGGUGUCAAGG | -0.18
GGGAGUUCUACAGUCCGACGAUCUCCUGUGCUACACAUCGUAUGUACCGAAUCGGGUUUUUUUGGGUUUGGGUUUUUUUGGGAAAGUAUUAUGUUACGCCGUUCGGAUCUGCAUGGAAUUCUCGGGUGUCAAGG | -0.348
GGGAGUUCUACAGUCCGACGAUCCAAGUCCUGUGCUACACAUCGUAUGUACCGAAUCGGGUUUUGGGUUUUGGUUUUGGAAAGUAUUAUGUUACGCCGUUCGGAUCUGCACUUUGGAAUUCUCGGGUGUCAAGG | -1.04
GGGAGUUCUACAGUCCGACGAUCUCCUGUGCUACACAUCGUAUGUACCGAAUCGGGAAAAAAGGGAAAAAAGGGAAAAAAGGAAAGUAUUAUGUUACGCCGUUCGGAUCUGCAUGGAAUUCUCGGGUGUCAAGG | -0.468
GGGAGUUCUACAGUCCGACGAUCCAAACUUAAAGUCUCCCUUGCUCGGAAGAAGCCUCCAAUGAACAGUAUGCGGGGUGGUCUGCCACCCCGUGAGGGCAGAGGCAUGCCACCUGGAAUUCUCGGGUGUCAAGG | -0.0496
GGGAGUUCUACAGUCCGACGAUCUGGCCCUGGUGGCAUGCGGGGAGGAAGAGGUGGCCUCAUGGAUCGUGGUGGUCCCGGUGGAAUGUUCAGAGAUGGCCGUGGUGGAGACAGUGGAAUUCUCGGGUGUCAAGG | 0.408
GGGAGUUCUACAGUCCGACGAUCCACAGUCAACACGCACCCACACAGACACAGAGGGAAGGGGUUGGGAUGGGGACAGGGUGCACAGCAGGGCGGGGUAGGACCCCAGCCCCUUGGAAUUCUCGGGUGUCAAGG | 1.69

Series 4
Cell line: mouse MPNST tumor cells
Method: high-content immunofluorescence imaging
Refers to: nuclear SOX9
Tested at: 10 µM
Time: 12 h
Setting: mean of 2 replicates
Baseline: DMSO control
Direction: higher = more nuclear SOX9
SMILES | nuclear SOX9 intensity
N=C(N)NCc1cccc(I)c1 | 102 % of DMSO
COc1cc2c(NC3CCN(C)CC3)nc(N3CCCN(C)CC3)nc2cc1OCCCN(C)C | 98.6 % of DMSO
C[C@@H](NCCCc1cccc(C(F)(F)F)c1)c1cccc2ccccc12 | 152 % of DMSO

A few entries again (series 3):
Strand | log2 enrichment
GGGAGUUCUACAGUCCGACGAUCUGGCCCUGGUGGCAUGCGGGGAGGAAGAGGUGGCCUCAUGGAUCGUGGUGGUCCCGGUGGAAUGUUCAGAGAUGGCCGUGGUGGAGACAGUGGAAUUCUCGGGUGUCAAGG | 0.408
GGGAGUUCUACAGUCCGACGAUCCAAGUCCUGUGCUACACAUCGUAUGUACCGAAUCGGGUUUUGGGUUUUGGUUUUGGAAAGUAUUAUGUUACGCCGUUCGGAUCUGCACUUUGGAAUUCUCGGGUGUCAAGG | -1.04
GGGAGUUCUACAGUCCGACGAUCCACAGUCAACACGCACCCACACAGACACAGAGGGAAGGGGUUGGGAUGGGGACAGGGUGCACAGCAGGGCGGGGUAGGACCCCAGCCCCUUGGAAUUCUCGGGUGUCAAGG | 1.69
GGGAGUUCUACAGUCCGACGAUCCCUGUGCUACACAUCGUAUGUACCGAAUCGGCCCCCCCGGGGCCCCCCCGGCCCCCCCGGAAAGUAUUAUGUUACGCCGUUCGGAUCUGCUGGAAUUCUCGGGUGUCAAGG | -0.203
